Measurements collected from several papers.
Compare with care: the assays were run in different laboratories. Several values in a cell are separate wells, animals, samples, runs or records. Numbers after ± are the reported error.
LHPP: Phospholysine phosphohistidine inorganic pyrophosphate phosphatase (LHPP, Homo sapiens, UniProt Q9H008)
Sequence of UniProt Q9H008 (whole entry, looked up): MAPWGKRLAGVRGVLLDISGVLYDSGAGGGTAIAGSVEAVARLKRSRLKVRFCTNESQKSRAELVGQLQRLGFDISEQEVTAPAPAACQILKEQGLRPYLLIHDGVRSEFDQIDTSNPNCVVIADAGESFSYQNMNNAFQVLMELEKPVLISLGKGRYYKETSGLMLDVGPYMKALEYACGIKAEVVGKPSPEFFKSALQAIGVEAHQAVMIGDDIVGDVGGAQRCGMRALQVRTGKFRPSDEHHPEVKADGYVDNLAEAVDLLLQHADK
Aminopeptidase N: Aminopeptidase N (Neisseria meningitidis, UniProt Q9JYV4)
Oprd1: Delta-type opioid receptor (Oprd1, Rattus norvegicus, UniProt P33533)
Sequence of UniProt P33533 (whole entry, looked up): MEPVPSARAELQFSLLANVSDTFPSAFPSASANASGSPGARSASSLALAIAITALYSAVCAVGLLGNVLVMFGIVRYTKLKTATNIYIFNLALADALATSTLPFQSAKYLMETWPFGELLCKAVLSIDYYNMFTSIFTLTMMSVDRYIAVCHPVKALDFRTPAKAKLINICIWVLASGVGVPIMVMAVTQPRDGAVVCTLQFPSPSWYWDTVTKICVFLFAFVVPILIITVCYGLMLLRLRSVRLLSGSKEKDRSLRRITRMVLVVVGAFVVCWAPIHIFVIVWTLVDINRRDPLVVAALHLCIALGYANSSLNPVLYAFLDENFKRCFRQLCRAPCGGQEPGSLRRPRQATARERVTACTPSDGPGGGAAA
CPL: CPL (Toxoplasma gondii, UniProt Q6DMN0)
ACHE: Acetylcholinesterase (ACHE, Homo sapiens, UniProt P22303)
Sequence of UniProt P22303 (whole entry, looked up): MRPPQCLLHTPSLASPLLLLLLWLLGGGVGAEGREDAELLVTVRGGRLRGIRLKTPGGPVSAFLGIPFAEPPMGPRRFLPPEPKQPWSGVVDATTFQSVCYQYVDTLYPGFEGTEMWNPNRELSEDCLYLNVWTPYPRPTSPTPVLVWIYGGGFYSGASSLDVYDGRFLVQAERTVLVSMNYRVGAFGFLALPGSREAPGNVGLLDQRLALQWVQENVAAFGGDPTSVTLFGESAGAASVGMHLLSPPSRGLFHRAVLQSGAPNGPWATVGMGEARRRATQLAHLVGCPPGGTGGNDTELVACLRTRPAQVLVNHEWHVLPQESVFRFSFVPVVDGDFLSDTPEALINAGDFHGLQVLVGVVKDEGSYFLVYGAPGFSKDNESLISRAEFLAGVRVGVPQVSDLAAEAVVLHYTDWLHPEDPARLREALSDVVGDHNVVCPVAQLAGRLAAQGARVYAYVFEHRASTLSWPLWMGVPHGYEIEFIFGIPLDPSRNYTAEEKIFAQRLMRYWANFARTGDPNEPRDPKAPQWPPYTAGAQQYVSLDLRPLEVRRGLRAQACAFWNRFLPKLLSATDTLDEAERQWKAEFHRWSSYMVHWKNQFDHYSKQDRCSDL
Sequence of UniProt P10275 (whole entry, looked up): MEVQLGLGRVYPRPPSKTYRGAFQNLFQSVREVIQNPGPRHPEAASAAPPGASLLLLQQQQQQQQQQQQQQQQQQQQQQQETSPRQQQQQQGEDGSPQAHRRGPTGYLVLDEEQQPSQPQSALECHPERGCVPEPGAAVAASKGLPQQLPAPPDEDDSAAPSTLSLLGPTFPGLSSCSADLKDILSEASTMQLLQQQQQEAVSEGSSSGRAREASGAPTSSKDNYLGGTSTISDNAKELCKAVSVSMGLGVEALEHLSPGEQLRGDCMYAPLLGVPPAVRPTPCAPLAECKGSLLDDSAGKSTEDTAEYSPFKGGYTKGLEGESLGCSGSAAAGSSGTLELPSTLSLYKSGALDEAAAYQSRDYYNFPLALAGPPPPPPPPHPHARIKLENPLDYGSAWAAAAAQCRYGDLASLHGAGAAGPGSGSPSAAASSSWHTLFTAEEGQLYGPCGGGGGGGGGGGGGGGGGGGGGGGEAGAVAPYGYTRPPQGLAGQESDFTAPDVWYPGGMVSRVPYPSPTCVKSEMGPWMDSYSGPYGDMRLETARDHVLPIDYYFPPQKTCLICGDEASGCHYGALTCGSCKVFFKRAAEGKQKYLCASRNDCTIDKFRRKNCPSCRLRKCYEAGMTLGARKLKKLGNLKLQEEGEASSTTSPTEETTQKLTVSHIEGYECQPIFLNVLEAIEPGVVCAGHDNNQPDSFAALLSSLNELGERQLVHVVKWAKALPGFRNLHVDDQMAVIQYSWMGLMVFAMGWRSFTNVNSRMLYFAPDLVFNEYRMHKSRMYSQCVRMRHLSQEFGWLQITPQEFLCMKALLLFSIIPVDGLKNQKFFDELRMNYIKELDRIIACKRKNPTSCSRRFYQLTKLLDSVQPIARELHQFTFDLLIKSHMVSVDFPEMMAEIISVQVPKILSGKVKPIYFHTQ
Sequence of UniProt P08238 (whole entry, looked up): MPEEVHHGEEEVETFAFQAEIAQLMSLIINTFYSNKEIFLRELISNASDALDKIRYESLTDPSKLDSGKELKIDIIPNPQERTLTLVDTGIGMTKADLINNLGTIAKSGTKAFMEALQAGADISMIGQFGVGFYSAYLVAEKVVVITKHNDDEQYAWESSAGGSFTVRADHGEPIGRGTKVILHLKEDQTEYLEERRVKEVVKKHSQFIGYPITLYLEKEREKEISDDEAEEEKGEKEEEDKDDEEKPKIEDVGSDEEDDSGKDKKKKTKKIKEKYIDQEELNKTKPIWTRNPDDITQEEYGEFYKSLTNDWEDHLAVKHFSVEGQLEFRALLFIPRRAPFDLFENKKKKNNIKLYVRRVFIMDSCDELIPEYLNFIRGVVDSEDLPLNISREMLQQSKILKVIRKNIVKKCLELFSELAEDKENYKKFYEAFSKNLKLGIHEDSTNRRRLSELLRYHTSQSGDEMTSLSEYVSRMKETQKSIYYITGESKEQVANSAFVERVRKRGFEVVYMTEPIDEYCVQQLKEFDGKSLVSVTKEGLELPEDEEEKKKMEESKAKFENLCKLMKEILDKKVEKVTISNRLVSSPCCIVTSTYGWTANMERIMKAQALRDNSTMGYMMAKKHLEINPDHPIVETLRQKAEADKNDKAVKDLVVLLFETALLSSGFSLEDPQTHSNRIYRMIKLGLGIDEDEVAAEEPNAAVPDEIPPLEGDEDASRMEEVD
Sequence of UniProt Q13464 (whole entry, looked up): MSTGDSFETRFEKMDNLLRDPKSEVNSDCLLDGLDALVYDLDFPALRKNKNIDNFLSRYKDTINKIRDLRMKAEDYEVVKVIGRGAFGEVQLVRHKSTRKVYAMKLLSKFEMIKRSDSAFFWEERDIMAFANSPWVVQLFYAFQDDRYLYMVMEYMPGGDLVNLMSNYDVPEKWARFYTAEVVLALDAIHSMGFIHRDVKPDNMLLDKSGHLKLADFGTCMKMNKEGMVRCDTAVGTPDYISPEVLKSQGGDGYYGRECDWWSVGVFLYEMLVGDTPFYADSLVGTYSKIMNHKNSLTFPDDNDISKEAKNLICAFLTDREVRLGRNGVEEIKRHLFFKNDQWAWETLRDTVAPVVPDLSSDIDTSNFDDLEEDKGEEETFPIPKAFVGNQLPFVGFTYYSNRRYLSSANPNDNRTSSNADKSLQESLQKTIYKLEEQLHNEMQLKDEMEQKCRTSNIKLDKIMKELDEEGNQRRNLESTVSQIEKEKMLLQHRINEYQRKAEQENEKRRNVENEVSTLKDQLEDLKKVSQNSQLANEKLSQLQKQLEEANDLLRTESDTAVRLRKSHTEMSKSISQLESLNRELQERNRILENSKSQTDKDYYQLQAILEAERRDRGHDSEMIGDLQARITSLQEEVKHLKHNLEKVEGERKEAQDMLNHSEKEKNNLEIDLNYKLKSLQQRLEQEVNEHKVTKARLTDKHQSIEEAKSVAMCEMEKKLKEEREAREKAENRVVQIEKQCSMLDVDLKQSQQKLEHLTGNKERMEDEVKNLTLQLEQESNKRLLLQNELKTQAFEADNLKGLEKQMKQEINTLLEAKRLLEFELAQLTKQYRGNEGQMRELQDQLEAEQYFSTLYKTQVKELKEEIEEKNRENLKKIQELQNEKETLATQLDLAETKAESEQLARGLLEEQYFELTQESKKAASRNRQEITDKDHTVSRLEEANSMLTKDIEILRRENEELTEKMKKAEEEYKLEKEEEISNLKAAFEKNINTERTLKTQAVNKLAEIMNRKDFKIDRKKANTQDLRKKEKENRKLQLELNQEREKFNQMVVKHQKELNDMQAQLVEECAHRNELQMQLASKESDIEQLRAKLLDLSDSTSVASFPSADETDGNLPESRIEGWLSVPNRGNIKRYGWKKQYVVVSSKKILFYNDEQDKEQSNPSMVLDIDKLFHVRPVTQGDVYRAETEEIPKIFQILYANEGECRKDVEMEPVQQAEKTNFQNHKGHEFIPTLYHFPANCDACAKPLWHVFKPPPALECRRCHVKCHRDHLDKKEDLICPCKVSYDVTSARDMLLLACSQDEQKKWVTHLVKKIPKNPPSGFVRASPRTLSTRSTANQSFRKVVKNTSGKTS
Sequence of UniProt P78325 (whole entry, looked up): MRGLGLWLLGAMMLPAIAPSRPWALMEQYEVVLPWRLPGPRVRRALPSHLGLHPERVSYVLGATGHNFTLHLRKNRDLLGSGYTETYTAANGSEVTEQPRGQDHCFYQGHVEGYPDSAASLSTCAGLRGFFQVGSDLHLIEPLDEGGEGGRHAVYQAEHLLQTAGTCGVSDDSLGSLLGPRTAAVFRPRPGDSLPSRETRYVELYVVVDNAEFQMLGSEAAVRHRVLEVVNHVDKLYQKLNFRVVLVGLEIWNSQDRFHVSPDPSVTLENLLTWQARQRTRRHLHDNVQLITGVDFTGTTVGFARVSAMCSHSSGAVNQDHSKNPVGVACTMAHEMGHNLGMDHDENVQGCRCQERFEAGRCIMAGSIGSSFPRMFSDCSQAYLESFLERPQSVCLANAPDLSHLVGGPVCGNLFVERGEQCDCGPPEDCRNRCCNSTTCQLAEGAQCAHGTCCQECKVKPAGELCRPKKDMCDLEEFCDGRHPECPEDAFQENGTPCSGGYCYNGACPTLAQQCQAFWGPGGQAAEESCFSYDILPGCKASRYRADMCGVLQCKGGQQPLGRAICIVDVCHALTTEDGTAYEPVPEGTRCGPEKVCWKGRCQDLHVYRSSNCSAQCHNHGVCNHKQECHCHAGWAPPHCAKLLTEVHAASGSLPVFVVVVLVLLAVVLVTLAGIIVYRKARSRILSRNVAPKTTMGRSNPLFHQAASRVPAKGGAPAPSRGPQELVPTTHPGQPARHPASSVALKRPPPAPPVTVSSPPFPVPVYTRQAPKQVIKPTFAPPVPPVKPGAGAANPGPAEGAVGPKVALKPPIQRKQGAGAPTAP

| SMILES | target | test | test system | conditions | scale | measurement | result |
| --- | --- | --- | --- | --- | --- | --- | --- |
| CC(=O)NCC(=O)NCC(=O)N[C@@H](CCCCNP(=O)(O)O)C(=O)NCC(=O)NCC(N)=O | LHPP | enzyme activity | – | concentration not given, 90 min, pH 7.8, together with: substrate 100 µM | – | substrate hydrolysis | 37.9% |
| NCCCC[C@H](N)C(=O)Nc1ccc2c(CC(N)=O)cc(=O)oc2c1 | Aminopeptidase N | enzyme activity, substrate | – | pH 7.5, 37 °C | – | Km | 88.7 ± 1.2 µM |
| Cc1cc(O)cc(C)c1CC(N)C(=O)NC1CCNc2c(Cc3ccccc3)cccc21 (stereo not drawn) | Oprd1 | agonist | C6 cell membranes | 10 µM | reference: DPDPE | maximal stimulation | inactive |
| N#Cc1nc(N2CCOCC2)nc(N(CCC2CCNCC2)Cc2ccc(F)cc2)n1 | CPL | enzyme activity, inhibitor | – | – | reference: human over Toxoplasma IC50 | selectivity ratio | 2.9 |
| CC(=O)N[C@H]1C(O)O[C@H](CO)[C@@H](O[C@@H]2O[C@H](CO)[C@H](O)[C@H](O)[C@H]2O)[C@@H]1O (stereo partly drawn) | Galectin-3 (LGALS3, Homo sapiens, UniProt P17931) | ITC | – | full-length protein | – | ΔH | -12.7 kcal/mol |
| CC(=O)/C(C#N)=C/c1cccc(C(N)=O)c1 | Genome polyprotein, 3C protease (Human enterovirus D68, UniProt Q68T42, C1641Y/I1565V/I1594T/R1603K/Y1579H) | ITC | enterovirus D68 | concentration not given, 25 °C, together with: DTT 10 mM | – | binding enthalpy | -2.51 kcal/mol |
| CC(C)C[C@H](NC(=O)[C@H](CCC(=O)O)NC(=O)[C@H](C)NC(=O)[C@H](CCC(=O)O)NC(=O)[C@H](CCC(=O)O)NC(=O)[C@H](Cc1c[nH]cn1)NC(=O)[C@H](CCCNC(=N)N)NC(=O)[C@H](CCC(=O)O)NC(=O)[C@H](CC(N)=O)NC(=O)[C@H](CCCCN)NC(=O)[C@H](CC(C)C)NC(=O)[C@H](CCCNC(=N)N)NC(=O)[C@H](CCC(N)=O)NC(=O)[C@H](CC(C)C)NC(=O)[C@H](CCC(=O)O)NC(=O)[C@H](C)NC(=O)[C@H](C)NC(=O)[C@H](C)NC(=O)[C@@H](NC(=O)[C@H](CC(C)C)NC(=O)[C@H](CCCCN)NC(=O)[C@H](CCC(=O)O)NC(=O)[C@@H](NC(=O)[C@H](CO)NC(=O)CN)C(C)C)[C@@H](C)O)C(=O)N[C@@H](CCC(=O)O)C(=O)N[C@@H](CCCNC(=N)N)C(=O)N[C@@H](CC(C)C)C(=O)N[C@@H](CCCCN)C(=O)N[C@@H](CO)C(=O)N[C@@H](CCC(=O)O)C(=O)N[C@@H](Cc1ccc(O)cc1)C(=O)O | Plasminogen (PLG, Homo sapiens, UniProt P00747, C188G/E240D/L256Y) | binding, SPR | – | pH 7.4 | – | koff | 0.0561 s⁻¹ |
| CCCCn1c2ccccc2c2cc(C(=O)c3cccc4ccccc34)ccc21 | CNR1 (Homo sapiens, UniProt P21554) | cAMP inhibition, agonist, BRET | HEK293 expressing CNR1 | together with: forskolin | reference: forskolin alone | Emax | 51.3% |
| COc1cccc(CN(CCC(C)C)c2nc(C#N)nc(N3CCOCC3)n2)c1 | CPL | enzyme activity, inhibitor | – | – | reference: human over Toxoplasma IC50 | selectivity ratio | 0.1 |
| NC(=O)Cc1cc(=O)oc2cc(NC(=O)[C@@H](N)CCc3ccccc3)ccc12 | Aminopeptidase N | enzyme activity, substrate | – | 3 µM, pH 7.5, 37 °C | reference: L-hArg-ACC | relative hydrolysis rate | 38.5 to 74% |
| CC(C)(C)n1ccc(C(=O)N2CCN(c3nc4ccccc4s3)CC2)c1 | hh, C-terminal autoprocessing domain (Drosophila melanogaster, UniProt Q02936) | inhibitor | – | 2.5 µM | – | kmax | 0.0009 s⁻¹ |
| CC(C)C[C@@H]1NC(=O)[C@H](CCCNC(=N)N)NC(=O)[C@H](CCCCN)NC(=O)[C@H](CC(=O)O)NC(=O)[C@H](CCCCN)NC(=O)[C@@H](CO)NC1=O | Disintegrin and metalloproteinase domain-containing protein 8 (Homo sapiens, UniProt P78325) | – | COS-7, transfected with target and CD23, supernatant | 500 nM, 12 h | – | soluble CD23 level | not detected |
| O=C(O)/C=C/c1ccc(O)cc1 | ACHE | inhibitor | – | 250 µg/mL | – | inhibition | 65.9 ± 1.4% |
| CC(=O)NCC(=O)NCC(=O)N[C@@H](COP(=O)(O)O)C(=O)NCC(=O)NCC(N)=O | LHPP | enzyme activity | – | concentration not given, 90 min, pH 7.8, together with: substrate 100 µM | – | substrate hydrolysis | 7.37% |
| CC[C@H](C)[C@H]1C(=O)O[C@H](C(C)C)C(=O)N(C)[C@@H]([C@@H](C)CC)C(=O)O[C@H](C(C)C)C(=O)N(C)[C@@H]([C@@H](C)CC)C(=O)O[C@H](C(C)C)C(=O)N1C | HSP90AB1 (Homo sapiens, UniProt P08238) | binding, SPR | – | – | – | koff | 0.0322 s⁻¹ |
| CC(C)CC[C@H](N)C(=O)Nc1ccc2c(CC(N)=O)cc(=O)oc2c1 | Aminopeptidase N | enzyme activity, substrate | – | pH 7.5, 37 °C | – | Km | 56.9 ± 1.8 µM |
| CC(C)P(=S)(NP(=S)(C(C)C)C(C)C)C(C)C | Alpha-amylase (Bacillus subtilis, UniProt P00691) | fluorescence quenching | – | concentration not given, pH 6.8, 298 K | – | ΔG of binding | -3.92 kcal/mol |
| CC[C@H](C)[C@H](NC(=O)[C@H](C)NC(=O)[C@H](CCC(=O)O)NC(C)=O)C(=O)NC1CCCC=CCCCC(C(=O)N[C@@H](CCC(N)=O)C(=O)N[C@@H](CC(C)C)C(=O)N[C@@H](CC(C)C)C(=O)N[C@@H](Cc2ccccc2)C(=O)N[C@H](C(=O)N[C@@H](Cc2c[nH]cn2)C(=O)N[C@@H](Cc2ccccc2)C(=O)N[C@@H](CCCNC(=N)N)C(=O)N[C@H](C(=O)NCC(N)=O)[C@@H](C)CC)[C@@H](C)CC)NC(=O)[C@H](CC(C)C)NC(=O)[C@H]([C@@H](C)CC)NC(=O)[C@H](CCCNC(=N)N)NC1=O (stereo partly drawn) | HIV-1 integrase and DNA substrate | DNA binding, gel retardation | – | 2 h, 37 °C, together with: radiolabelled oligonucleotide DNA | – | minimum DNA retardation concentration | 37 µM |
| CCN(Cc1ccccc1)C(=O)CCc1nc(CN2CCN(C(=O)Cc3ccc(OC)c(OC)c3)CC2)no1 | SCN9A (Homo sapiens, UniProt Q15858) | sodium current, whole-cell patch clamp | HEK293, stable | 3 µM | – | inactivation V1/2 | -76.9 ± 6.91 mV |
| CC[C@H](C)[C@H](NC(=O)[C@H](Cc1c[nH]cn1)NC(=O)[C@H](CCCCNC(=O)[C@@H](NC(=O)[C@H](CCCCN)NC(=O)CSC[C@H](NC(=O)[C@H](Cc1ccccc1)NC(=O)[C@H](CCCCNC(=O)[C@H](CC(C)C)NC(=O)[C@@H]1CCCN1C(=O)[C@H](CCCCN)NC(=O)CCS[C@@H]1O[C@H](CO)[C@H](O)[C@H](O)[C@H]1O)NC(=O)[C@H](CC(C)C)NC(=O)[C@@H]1CCCN1C(=O)[C@H](CCCCN)NC(=O)C[C@@H]1O[C@@H](C)[C@@H](O)[C@@H](O)[C@@H]1O)C(N)=O)[C@@H](C)CC)NC(=O)[C@@H](NC(=O)[C@H](CCCCN)NC(=O)CSC[C@H](NC(=O)[C@H](Cc1ccccc1)NC(=O)[C@H](CCCCNC(=O)[C@H](CC(C)C)NC(=O)[C@@H]1CCCN1C(=O)[C@H](CCCCN)NC(=O)CCS[C@@H]1O[C@H](CO)[C@H](O)[C@H](O)[C@H]1O)NC(=O)[C@H](CC(C)C)NC(=O)[C@@H]1CCCN1C(=O)[C@H](CCCCN)NC(=O)C[C@@H]1O[C@@H](C)[C@@H](O)[C@@H](O)[C@@H]1O)C(N)=O)[C@@H](C)CC)C(N)=O | lecB (Pseudomonas aeruginosa, UniProt Q9HYN5) | binding, isothermal titration calorimetry | – | divided by fucoside copies | reference: monovalent fucoside KD over ligand KD | relative potency per fucoside | 2.1 |
| CC[C@H](C)[C@H](NC(=O)[C@H](CC(N)=O)NC(=O)[C@H](CC(N)=O)NC(=O)[C@@H](N)CCCNC(N)=O)C(=O)N1C[C@@H](n2cc([C]34[CH]5[CH]6[CH]7[CH]3[Fe]6754389%10[CH]4[CH]3[CH]8[CH]9[CH]4%10)nn2)C[C@H]1C(=O)N[C@@H](Cc1c[nH]c2ccccc12)C(=O)N[C@@H](CO)C(N)=O (stereo partly drawn) | env (Human immunodeficiency virus type 1 group M subtype B, UniProt P35961) | ITC | – | pH 7.4, 25 °C | – | binding free energy | -10.5 ± 0.8 kcal/mol |
| CC(=O)OC1C(C)C(OC2CC3OCOC3C(C)O2)C=COC2(C)Oc3c(C)c(O)c4c(c3C2=O)C(=O)C=C(NC(=O)C(C)=CC=CC(C(C)OC(=O)C(C)(C)CC(=O)O)C(O)C(C)C(O)C1C)C4=O (stereo not drawn) | rpoB (Escherichia coli K-12, UniProt P0A8V2, S531L) | inhibitor | – | – | reference: compound over rifampicin | activity ratio | 10 |
| CN(C)CCCSC(=S)N1CCN(C(=O)/C=C/c2coc3ccccc3c2=O)CC1 | Nucleoprotein (N, Tomato spotted wilt virus, UniProt P25999, R94A) | binding, microscale thermophoresis | – | concentration not given | reference: wild type over mutant | fold reduction in affinity | ~103 |
| Nc1nc2c([C@@H]3O[C@@H]4COP(=O)(O)O[C@H]5[C@@H](O)[C@H](n6cnc7c(=O)[nH]c(N)nc76)O[C@@H]5COP(=O)(O)O[C@H]4[C@H]3O)snc2c(=O)[nH]1 | rocR (Pseudomonas aeruginosa, UniProt Q9HX69) | substrate, HPLC | – | 10 µM, together with: 100 nM enzyme | – | dissociation rate constant k-1 | 0.096 ± 0.091 s⁻¹ |
| N#Cc1nc(N2CCOCC2)nc(N(Cc2ccc(F)cc2)CC2CCCCC2)n1 | CPL | enzyme activity, inhibitor | – | – | reference: human over Toxoplasma IC50 | selectivity ratio | 3.7 and ~4 |
| CC(=O)NC(Cc1ccc(Br)c(Cl)c1)C(=O)N[C@@H](C)C(=O)N1CCC[C@H]1C(=O)N1CCC[C@H]1C(=O)N[C@@H](CCC(=O)O)C(=O)N[C@@H](Cc1c[nH]cn1)C(=O)N[C@@H](CO)C(=O)N[C@H](C(=O)N[C@@H](C)C(N)=O)[C@@H](C)OP(=O)(O)O (stereo partly drawn) | ROCK1 (Homo sapiens, UniProt Q13464) | enzyme activity, inhibitor | – | 10 µM | – | inhibition | 5.54% |
| Cc1cc(O)cc(C)c1CC(N)C(=O)NC1CCNc2c(CN3CCCCC3)cc(Cc3ccccc3)cc21 (stereo not drawn) | Oprd1 | GTPγS binding, agonist | C6 cells expressing DOR | – | reference: DPDPE at 10 µM | maximal stimulation | 31% |
| O=C(O)CCCC(=O)O | ACHE | enzyme activity, inhibitor | – | 62.5 µg/mL | – | inhibition | 41.2 ± 1.71% |
| C=C(c1ccccc1)[C@@H](N)P(=O)(O)O | PAL1 (Petroselinum crispum, UniProt P24481) | enzyme activity, inhibitor | – | concentration not given, together with: L-phenylalanine | – | time to complete fast binding step | ≤ 1 min |
| C=C(C)C(=O)Oc1ccc(C(C)(C)c2ccc(OC(=O)C(=C)C)cc2)cc1 | Androgen receptor (AR, Homo sapiens, UniProt P10275) | reporter gene, antagonist | CHO | together with: 0.1 nM R1881 | – | LOEC | 2.5 µM |

Some of these lines once more:
| SMILES | target | test | test system | conditions | scale | measurement | result |
| --- | --- | --- | --- | --- | --- | --- | --- |
| CC(=O)/C(C#N)=C/c1cccc(C(N)=O)c1 | Genome polyprotein, 3C protease (Human enterovirus D68, UniProt Q68T42, C1641Y/I1565V/I1594T/R1603K/Y1579H) | ITC | enterovirus D68 | concentration not given, 25 °C, together with: DTT 10 mM | – | binding enthalpy | -2.51 kcal/mol |
| CC(C)CC[C@H](N)C(=O)Nc1ccc2c(CC(N)=O)cc(=O)oc2c1 | Aminopeptidase N | enzyme activity, substrate | – | pH 7.5, 37 °C | – | Km | 56.9 ± 1.8 µM |
